{"sequences": {"note": "Sequences of proteins named here, by UniProt entry; tags and fusion partners are left off.", "UniProt Q16539, whole entry": "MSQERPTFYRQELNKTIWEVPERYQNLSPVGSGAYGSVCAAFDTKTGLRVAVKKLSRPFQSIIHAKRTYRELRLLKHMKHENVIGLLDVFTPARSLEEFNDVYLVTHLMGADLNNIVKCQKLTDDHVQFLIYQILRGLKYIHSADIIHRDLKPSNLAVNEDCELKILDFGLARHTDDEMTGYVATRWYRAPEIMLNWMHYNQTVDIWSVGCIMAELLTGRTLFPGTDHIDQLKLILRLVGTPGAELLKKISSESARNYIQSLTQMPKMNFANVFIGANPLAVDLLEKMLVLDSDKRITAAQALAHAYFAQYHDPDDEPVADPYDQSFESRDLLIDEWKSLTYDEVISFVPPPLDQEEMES"}, "data": "Published values pooled from the literature", "note": "Protocols differ between the studies behind these lines. Several values in a cell are separate wells, animals, samples, runs or records. ± marks the error that the study gave."}
{"Structure (SMILES)": "CC(C)CC(NC(=O)C(Cc1ccccc1)NC(=O)c1cnc(C(=O)NC(Cc2ccccc2)C(=O)NC(CC(C)C)B(O)O)cn1)B(O)O (stereo not drawn)", "tested on": "RPMI-8226", "assay": "cell viability, CellTiter-Glo", "conditions": "48 h", "quantity": "IC50", "value": "0.0032 µM"}
{"Structure (SMILES)": "NS(=O)(=O)c1nnc(NC(=O)C2C3CC4CC(C3)CC2C4)s1 (stereo not drawn)", "system": "n-octanol/PBS", "conditions": "pH 7.4", "quantity": "logD", "value": 1.5}
{"Structure (SMILES)": "CN(C)CCNC(=O)c1cccc2ccc(-c3ccc(-c4ccccc4)cc3)nc12", "tested on": "K562", "assay": "cytotoxicity, XTT", "conditions": "96 h", "quantity": "IC50", "value": "1.8 ± 1.2 µM"}
{"Structure (SMILES)": "C=C(C)C(=O)Nc1ccc(-c2c(-c3ccc(Oc4nccc(C)n4)c(F)c3)c3c(N)ncnc3n2C)cc1", "tested on": "MFM-223", "assay": "ubiquitin pulldown (TUBE1)", "conditions": "concentration not given, 6 h, added: inavolisib", "quantity": "p110α ubiquitination", "value": "inhibited"}
{"Structure (SMILES)": "CCOC(=O)c1c(-c2ccc(Cl)cc2Cl)n(-c2nc(-c3ccc(Cl)cc3)c3c(NC(=O)c4ccccc4)nnc-3[nH]2)[nH]c1=O", "tested on": "HCT-15", "assay": "SRB", "conditions": "10 µM", "how to read": "baseline: untreated", "quantity": "cell growth", "value": "-29.7%"}
{"Structure (SMILES)": "CN(C)CCNC(=O)c1cc([N+](=O)[O-])cc2ccc(-c3ccccc3)nc12", "tested on": "MDA-MB-468", "assay": "cytotoxicity, MTT", "conditions": "3 h exposure, 96 h total", "quantity": "IC50", "value": "12 ± 2.2 µM"}
{"Structure (SMILES)": "CN1C(=O)CCc2cc(CNC(C)(C)[C@@H](O)c3ccccc3)ccc21", "system": "CD-1 mouse, male, brain", "conditions": "subcutaneous, 10 mg/kg", "quantity": "half-life", "value": "7.53 h"}
{"Structure (SMILES)": "N#Cc1c(-c2ccc(Cl)cc2Cl)n(-c2nc(-c3ccc(Cl)cc3)c3c(NC(=O)c4ccccc4)nnc-3[nH]2)[nH]c1=O", "tested on": "SF-295", "assay": "SRB", "quantity": "GI50", "value": "3.88 µM"}
{"Structure (SMILES)": "CC(C)C[C@H](NC(=O)[C@H](C)NC(=O)[C@H](CCCNC(=N)N)NC(=O)[C@H](CCCNC(=N)N)NC(=O)[C@H](CCCNC(=N)N)NC(=O)[C@H](C)NC(=O)[C@H](CC(C)C)NC(=O)[C@H](CCCNC(=N)N)NC(=O)[C@H](CO)NC(=O)[C@H](CCCCN)NC(=O)[C@H](CO)NC(=O)Cn1cc(COC(=O)[C@]2(C)C=C(C(=O)OC(C)(C)C)C(=O)CC2)nn1)C(=O)O", "tested on": "Mitogen-activated protein kinase 14 (MAPK14, Homo sapiens, UniProt Q16539)", "assay": "enzyme activity, inhibitor, D-SENSOR kinase", "conditions": "0.09145 µM, unit not given", "how to read": "baseline: untreated", "quantity": "remaining activity", "value": "0.796 and 0.791 and 0.69"}
{"Structure (SMILES)": "CC(C)C[C@H](NC(=O)[C@@H](NC(=O)[C@H](CC(C)C)NC(=O)[C@H](CS)NC(=O)CNS(=O)(=O)c1cccc2c(N(C)C)cccc12)C(C)C)C(=O)O", "tested on": "geranylgeranyltransferase type-I (Rattus norvegicus, UniProt P53610+Q04631)", "assay": "substrate, fluorescence", "conditions": "30 °C, added: SmgGDS-558 5 µM and GGPP 10 µM", "quantity": "Km", "value": "2 ± 1.2 µM"}
{"Structure (SMILES)": "Cc1c(Cn2c(C)nc3c(C(=O)O)cc(N4CCOCC4)cc32)cccc1C(F)(F)F", "tested on": "22Rv1", "assay": "cell growth, WST-8", "conditions": "3 days", "quantity": "EC50", "value": "12 µM"}
{"Structure (SMILES)": "CC/C=C\\C/C=C\\CCC/C=C/C=C/C=C\\CCCC(=O)O", "tested on": "HL-60", "assay": "flow cytometry", "conditions": "12.5 µM, 24 h", "quantity": "G2/M phase cells", "value": "8.9%"}
{"note": "Repeated from above:"}
{"Structure (SMILES)": "C=C(C)C(=O)Nc1ccc(-c2c(-c3ccc(Oc4nccc(C)n4)c(F)c3)c3c(N)ncnc3n2C)cc1", "tested on": "MFM-223", "assay": "ubiquitin pulldown (TUBE1)", "conditions": "concentration not given, 6 h, added: inavolisib", "quantity": "p110α ubiquitination", "value": "inhibited"}
